Published values of several laboratories.
Every numbered part comes from another study and shows a few of its results, in no order. “And” joins repeats or separate records; there may be more than shown.
UniProt P07949, sequence (whole entry, unmodified, looked up): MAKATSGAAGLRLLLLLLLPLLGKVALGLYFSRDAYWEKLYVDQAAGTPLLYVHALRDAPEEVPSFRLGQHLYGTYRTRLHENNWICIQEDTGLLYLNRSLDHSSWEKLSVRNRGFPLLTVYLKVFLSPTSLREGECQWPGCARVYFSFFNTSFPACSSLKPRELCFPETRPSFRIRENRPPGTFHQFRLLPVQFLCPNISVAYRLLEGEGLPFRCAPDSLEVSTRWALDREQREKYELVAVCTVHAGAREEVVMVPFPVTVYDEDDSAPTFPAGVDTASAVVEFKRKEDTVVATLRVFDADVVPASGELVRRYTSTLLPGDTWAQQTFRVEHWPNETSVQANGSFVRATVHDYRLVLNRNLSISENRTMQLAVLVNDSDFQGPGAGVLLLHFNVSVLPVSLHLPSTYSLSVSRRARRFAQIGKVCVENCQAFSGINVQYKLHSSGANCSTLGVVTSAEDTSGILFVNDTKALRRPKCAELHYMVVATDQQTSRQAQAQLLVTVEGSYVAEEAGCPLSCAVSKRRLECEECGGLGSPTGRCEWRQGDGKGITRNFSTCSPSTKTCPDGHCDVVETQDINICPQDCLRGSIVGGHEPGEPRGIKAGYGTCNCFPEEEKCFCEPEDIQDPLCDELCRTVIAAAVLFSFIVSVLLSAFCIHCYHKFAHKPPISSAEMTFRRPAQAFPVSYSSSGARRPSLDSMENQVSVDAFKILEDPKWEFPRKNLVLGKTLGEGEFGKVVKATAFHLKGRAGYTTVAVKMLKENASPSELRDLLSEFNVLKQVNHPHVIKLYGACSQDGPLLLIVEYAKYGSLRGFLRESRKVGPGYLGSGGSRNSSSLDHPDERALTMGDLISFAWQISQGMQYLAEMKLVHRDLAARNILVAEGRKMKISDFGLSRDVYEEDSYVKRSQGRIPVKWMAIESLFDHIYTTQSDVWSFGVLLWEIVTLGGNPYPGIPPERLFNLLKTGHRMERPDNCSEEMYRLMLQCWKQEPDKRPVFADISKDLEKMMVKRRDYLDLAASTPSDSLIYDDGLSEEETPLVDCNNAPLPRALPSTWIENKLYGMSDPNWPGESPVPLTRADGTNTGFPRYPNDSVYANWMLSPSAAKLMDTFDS
UniProt P10721, sequence (whole entry, unmodified, looked up): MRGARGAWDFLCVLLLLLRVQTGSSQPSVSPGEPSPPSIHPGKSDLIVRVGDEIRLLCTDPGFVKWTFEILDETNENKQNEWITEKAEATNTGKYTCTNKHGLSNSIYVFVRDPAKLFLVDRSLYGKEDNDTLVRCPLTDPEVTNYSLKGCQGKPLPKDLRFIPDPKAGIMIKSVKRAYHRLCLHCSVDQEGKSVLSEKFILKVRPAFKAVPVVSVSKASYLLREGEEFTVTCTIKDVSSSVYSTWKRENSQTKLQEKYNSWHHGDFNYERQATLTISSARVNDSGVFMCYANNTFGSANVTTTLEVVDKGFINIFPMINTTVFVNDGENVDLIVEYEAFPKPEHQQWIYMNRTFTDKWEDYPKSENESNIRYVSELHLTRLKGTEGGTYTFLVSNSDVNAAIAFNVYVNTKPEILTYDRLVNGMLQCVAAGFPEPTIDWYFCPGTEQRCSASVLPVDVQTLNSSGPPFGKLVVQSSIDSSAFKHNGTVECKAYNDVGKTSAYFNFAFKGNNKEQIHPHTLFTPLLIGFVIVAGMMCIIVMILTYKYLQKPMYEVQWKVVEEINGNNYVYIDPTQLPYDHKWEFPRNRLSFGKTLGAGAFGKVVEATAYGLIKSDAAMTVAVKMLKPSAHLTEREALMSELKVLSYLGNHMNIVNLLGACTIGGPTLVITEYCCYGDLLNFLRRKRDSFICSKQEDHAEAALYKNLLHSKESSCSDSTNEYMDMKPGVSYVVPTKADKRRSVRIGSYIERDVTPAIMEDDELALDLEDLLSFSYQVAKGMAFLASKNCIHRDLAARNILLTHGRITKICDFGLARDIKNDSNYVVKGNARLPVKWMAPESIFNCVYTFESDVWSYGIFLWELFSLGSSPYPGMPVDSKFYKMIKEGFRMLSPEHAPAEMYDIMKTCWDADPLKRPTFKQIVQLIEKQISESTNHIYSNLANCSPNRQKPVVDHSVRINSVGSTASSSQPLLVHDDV
UniProt Q96PF2, sequence (whole entry, looked up): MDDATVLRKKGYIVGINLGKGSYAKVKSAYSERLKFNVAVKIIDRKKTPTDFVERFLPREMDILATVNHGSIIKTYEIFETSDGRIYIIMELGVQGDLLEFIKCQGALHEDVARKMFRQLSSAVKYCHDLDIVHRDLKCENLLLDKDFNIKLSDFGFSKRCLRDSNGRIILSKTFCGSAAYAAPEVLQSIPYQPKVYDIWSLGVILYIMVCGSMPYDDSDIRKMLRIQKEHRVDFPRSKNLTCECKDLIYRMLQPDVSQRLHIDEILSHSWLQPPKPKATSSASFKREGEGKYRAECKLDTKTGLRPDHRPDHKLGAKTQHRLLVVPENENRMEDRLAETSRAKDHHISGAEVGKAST
UniProt Q9H3Y6, sequence (whole entry, looked up): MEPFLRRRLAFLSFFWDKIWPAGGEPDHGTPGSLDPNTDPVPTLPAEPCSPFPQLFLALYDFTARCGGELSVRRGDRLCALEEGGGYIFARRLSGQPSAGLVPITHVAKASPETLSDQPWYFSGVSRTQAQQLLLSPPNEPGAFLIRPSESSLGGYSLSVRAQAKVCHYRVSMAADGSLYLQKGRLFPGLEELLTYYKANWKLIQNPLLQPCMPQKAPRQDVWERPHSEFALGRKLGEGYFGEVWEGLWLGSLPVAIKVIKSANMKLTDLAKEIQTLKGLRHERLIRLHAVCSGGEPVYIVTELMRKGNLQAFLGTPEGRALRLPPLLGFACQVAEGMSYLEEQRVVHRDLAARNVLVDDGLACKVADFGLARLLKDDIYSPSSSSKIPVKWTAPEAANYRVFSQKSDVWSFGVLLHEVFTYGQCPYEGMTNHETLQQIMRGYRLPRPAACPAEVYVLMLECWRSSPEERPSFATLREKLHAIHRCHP

Sample 1 — concentration: 1 µM
SMILES: CC[C@@]1(c2ccccc2)C2=C(CC(C)(C)CC2=O)Nc2n[nH]cc21
target	assay	scale	remaining binding
PIK3CA (Homo sapiens, UniProt P42336, E545K)	binding, competition with immobilised ligand	–	61%
YES1 (Homo sapiens, UniProt P07947)	kinase binding, KINOMEscan	reference: DMSO control	100%
ROCK2 (Homo sapiens, UniProt O75116)	binding, competition with immobilised ligand	–	77%
CSNK1E (Homo sapiens, UniProt P49674)	binding, competition with immobilised ligand	–	100%
CAMK2D (Homo sapiens, UniProt Q13557)	kinase binding, KINOMEscan	reference: DMSO control	94%
PIK3C2G (Homo sapiens, UniProt O75747)	kinase binding, KINOMEscan	reference: DMSO control	92%
EGFR (Homo sapiens, UniProt P00533, del746-750)	binding, competition with immobilised ligand	–	97%
EPHA1 (Homo sapiens, UniProt P21709)	binding, competition with immobilised ligand	–	95%
ACVR1B (Homo sapiens, UniProt P36896)	kinase binding, KINOMEscan	reference: DMSO control	100%
CDPK1 (Plasmodium falciparum, UniProt P62344)	binding, competition with immobilised ligand	–	96%
PDGFRA (Homo sapiens, UniProt P16234)	binding, competition with immobilised ligand	–	100%
STK33 (Homo sapiens, UniProt Q9BYT3)	kinase binding, KINOMEscan	reference: DMSO control	98%
TNNI3K (Homo sapiens, UniProt Q59H18)	binding, competition with immobilised ligand	–	98%
RET (Homo sapiens, UniProt P07949)	binding, competition with immobilised ligand	–	72%
PRKD3 (Homo sapiens, UniProt O94806)	kinase binding, KINOMEscan	reference: DMSO control	95%
PLK4 (Homo sapiens, UniProt O00444)	binding, competition with immobilised ligand	–	100%
FGFR3 (Homo sapiens, UniProt P22607)	binding, competition with immobilised ligand	–	100%
MAP3K2 (Homo sapiens, UniProt Q9Y2U5)	kinase binding, KINOMEscan	reference: DMSO control	100%
Ribosomal protein S6 kinase alpha-4, C-terminal kinase domain (RPS6KA4, Homo sapiens, UniProt O75676)	kinase binding, KINOMEscan	reference: DMSO control	100%
MUSK (Homo sapiens, UniProt O15146)	binding, competition with immobilised ligand	–	100%
STK35 (Homo sapiens, UniProt Q8TDR2)	kinase binding, KINOMEscan	reference: DMSO control	98%
Tyrosine-protein kinase ABL1, phosphorylated (ABL1, Homo sapiens, UniProt P00519, Q252H)	binding, competition with immobilised ligand	–	66%
AKT2 (Homo sapiens, UniProt P31751)	kinase binding, KINOMEscan	reference: DMSO control	100%
FLT3 (Homo sapiens, UniProt P36888, K663Q)	kinase binding, KINOMEscan	reference: DMSO control	80%
Myosin-IIIb (MYO3B, Homo sapiens, UniProt Q8WXR4)	binding, competition with immobilised ligand	–	100%

Sample 2 — organism: Arabidopsis thaliana; strain: Col-0; concentration: 12.5 µg/mL; setting: seed germination, single repetition
SMILES	hypocotyl length
O=C(O)C1(O)Oc2cc(Br)ccc2N(Cc2ccccc2)C1=O (centres unmarked)	1.96 cm and 1.9 cm and 1.92 cm and 1.95 cm and 1.93 cm
O=C(O)C1Oc2cc(F)ccc2N(Cc2ccccc2)C1=O (centres unmarked)	2.13 cm and 2.05 cm and 2.11 cm and 2.15 cm
CC(C)=CCN1C(=O)C(O)(C(=O)O)Oc2cc(F)ccc21 (centres unmarked)	2.01 cm and 1.95 cm and 1.98 cm and 2.05 cm and 2.03 cm
O=C(O)C1(O)Oc2ccccc2N(Cc2ccccc2)C1=O (centres unmarked)	1.77 cm and 1.72 cm and 1.71 cm and 1.78 cm
CC(C)(C)c1ccc(Oc2ccc3c(c2)OC(O)(C(=O)O)C(=O)N3Cc2ccccc2)cc1 (centres unmarked)	1.84 cm and 1.86 cm and 1.83 cm and 1.98 cm and 1.89 cm

Sample 3 — effect on: kinase activity
Compound: CN(C1COC1)C(C)(C)/C=C(\C#N)C(=O)N1CCC[C@H]1Cn1nc(-c2ccc(Oc3ccccc3)cc2F)c2c(N)ncnc21
target	conditions	inhibition [%]
CAMK2A (Homo sapiens, UniProt Q9UQM7)	0.1 µM	3
RET (Homo sapiens, UniProt P07949)	1 µM	42
CAMK2G (Homo sapiens, UniProt Q13555)	1 µM	0
FYN (Homo sapiens, UniProt P06241)	0.1 µM	21
STK10 (Homo sapiens, UniProt O94804)	1 µM	5
ROCK1 (Homo sapiens, UniProt Q13464)	1 µM	-6
MELK (Homo sapiens, UniProt Q14680)	0.1 µM	5
PAK6 (Homo sapiens, UniProt Q9NQU5)	0.1 µM	6
TSSK2 (Homo sapiens, UniProt Q96PF2)	0.1 µM	5
JAK2 (Homo sapiens, UniProt O60674)	0.1 µM	-6
SRMS (Homo sapiens, UniProt Q9H3Y6)	0.1 µM	-6
PIK3CG (Homo sapiens, UniProt P48736)	1 µM	-8
CDC42BPB (Homo sapiens, UniProt Q9Y5S2)	0.1 µM	3
HCK (Homo sapiens, UniProt P08631)	0.1 µM	17
MAPK13 (Homo sapiens, UniProt O15264)	0.1 µM	1
SIK1 (Homo sapiens, UniProt P57059)	1 µM	0
GRK6 (Homo sapiens, UniProt P43250)	0.1 µM	-1
GSK3A (Homo sapiens, UniProt P49840)	0.1 µM	-1
MAPK8 (Homo sapiens, UniProt P45983)	1 µM	-10
TYRO3 (Homo sapiens, UniProt Q06418)	1 µM	1
ITK (Homo sapiens, UniProt Q08881)	1 µM	5

Sample 4 — SMILES: Cc1cc(NCC(=O)NC(C)C)ccc1Br; action: inhibitor; cells: CHO-BC cells; setting: unit not given; reference: uninhibited cells
Target: Sodium-dependent neutral amino acid transporter B(0)AT1 (SLC6A19, Homo sapiens, UniProt Q695T7)
UniProt Q695T7, sequence (whole entry, looked up): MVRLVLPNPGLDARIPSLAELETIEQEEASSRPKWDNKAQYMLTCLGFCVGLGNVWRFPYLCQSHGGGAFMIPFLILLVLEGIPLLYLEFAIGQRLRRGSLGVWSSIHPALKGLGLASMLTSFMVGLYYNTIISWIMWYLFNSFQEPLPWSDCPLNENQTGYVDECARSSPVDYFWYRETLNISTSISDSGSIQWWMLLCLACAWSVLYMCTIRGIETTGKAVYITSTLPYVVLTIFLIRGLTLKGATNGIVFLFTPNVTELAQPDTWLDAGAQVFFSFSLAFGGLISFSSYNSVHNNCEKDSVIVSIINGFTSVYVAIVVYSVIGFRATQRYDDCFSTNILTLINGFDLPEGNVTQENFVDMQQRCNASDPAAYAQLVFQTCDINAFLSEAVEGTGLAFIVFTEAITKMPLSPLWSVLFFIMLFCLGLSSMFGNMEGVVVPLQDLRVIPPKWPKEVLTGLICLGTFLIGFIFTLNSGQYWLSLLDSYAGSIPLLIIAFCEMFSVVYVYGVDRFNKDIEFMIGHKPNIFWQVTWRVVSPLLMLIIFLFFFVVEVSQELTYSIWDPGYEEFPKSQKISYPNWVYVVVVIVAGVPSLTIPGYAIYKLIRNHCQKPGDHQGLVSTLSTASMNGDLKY
assay	conditions	remaining transport activity
FLIPR membrane potential	0.03 µM	0.761
FLIPR membrane potential	0.003 µM	0.997
L-[14C]leucine uptake	0.01 µM, 6 min, 37 °C, together with: GPNA 3 mM, JPH203 3 µM	0.941

Sample 5 — effect on: binding; method: competition with immobilised ligand; concentration: 1 µM
Compound: COc1cc(-c2nc3ccc(C(=O)NCCCN(C)C)cc3n2C2CCC2)cc(OC)c1OC
target	remaining binding [%]
TSSK3 (Homo sapiens, UniProt Q96PN8)	97
SIK2 (Homo sapiens, UniProt Q9H0K1)	100
RET (Homo sapiens, UniProt P07949, V804M)	57
MAPK15 (Homo sapiens, UniProt Q8TD08)	100
MARK4 (Homo sapiens, UniProt Q96L34)	69
ZAP70 (Homo sapiens, UniProt P43403)	90
WEE1 (Homo sapiens, UniProt P30291)	100
TLK1 (Homo sapiens, UniProt Q9UKI8)	86
CRK2 (Plasmodium falciparum, UniProt P61075)	37
CDK2 (Homo sapiens, UniProt P24941)	90
PRKG2 (Homo sapiens, UniProt Q13237)	86
TEC (Homo sapiens, UniProt P42680)	96
TNK1 (Homo sapiens, UniProt Q13470)	92
MAP3K10 (Homo sapiens, UniProt Q02779)	62
FER (Homo sapiens, UniProt P16591)	100
STK24 (Homo sapiens, UniProt Q9Y6E0)	80
IGF1R (Homo sapiens, UniProt P08069)	96
EGFR (Homo sapiens, UniProt P00533)	82
DAPK1 (Homo sapiens, UniProt P53355)	91
KIT (Homo sapiens, UniProt P10721, D816H)	96
PRKD1 (Homo sapiens, UniProt Q15139)	100
Tyrosine-protein kinase ABL1, phosphorylated (ABL1, Homo sapiens, UniProt P00519, F317L)	38
NEK11 (Homo sapiens, UniProt Q8NG66)	91
NTRK3 (Homo sapiens, UniProt Q16288)	85
MAP2K3 (Homo sapiens, UniProt P46734)	77

Sample 6 — effect on: thermal unfolding; method: differential scanning fluorimetry; concentration: 5.5 µM; reading: higher = more unfolded
Compound: C[C@@H]1CN(c2ccc(-c3cc(C(=O)NCCOCCOCCOCCOCCNC(=O)Cn4cc(-c5[nH]cc(C(=O)N[C@@H](CC(N)=O)c6ccc(F)c(Cl)c6)c5-c5ccc(Cl)cc5F)cn4)ccc3F)cc2NC(=O)c2c[nH]c(=O)cc2C(F)(F)F)C[C@H](C)N1C
DCAF1: DDB1- and CUL4-associated factor 1 (DCAF1, Homo sapiens, UniProt Q9Y4B6)
UniProt Q9Y4B6, sequence (whole entry, looked up): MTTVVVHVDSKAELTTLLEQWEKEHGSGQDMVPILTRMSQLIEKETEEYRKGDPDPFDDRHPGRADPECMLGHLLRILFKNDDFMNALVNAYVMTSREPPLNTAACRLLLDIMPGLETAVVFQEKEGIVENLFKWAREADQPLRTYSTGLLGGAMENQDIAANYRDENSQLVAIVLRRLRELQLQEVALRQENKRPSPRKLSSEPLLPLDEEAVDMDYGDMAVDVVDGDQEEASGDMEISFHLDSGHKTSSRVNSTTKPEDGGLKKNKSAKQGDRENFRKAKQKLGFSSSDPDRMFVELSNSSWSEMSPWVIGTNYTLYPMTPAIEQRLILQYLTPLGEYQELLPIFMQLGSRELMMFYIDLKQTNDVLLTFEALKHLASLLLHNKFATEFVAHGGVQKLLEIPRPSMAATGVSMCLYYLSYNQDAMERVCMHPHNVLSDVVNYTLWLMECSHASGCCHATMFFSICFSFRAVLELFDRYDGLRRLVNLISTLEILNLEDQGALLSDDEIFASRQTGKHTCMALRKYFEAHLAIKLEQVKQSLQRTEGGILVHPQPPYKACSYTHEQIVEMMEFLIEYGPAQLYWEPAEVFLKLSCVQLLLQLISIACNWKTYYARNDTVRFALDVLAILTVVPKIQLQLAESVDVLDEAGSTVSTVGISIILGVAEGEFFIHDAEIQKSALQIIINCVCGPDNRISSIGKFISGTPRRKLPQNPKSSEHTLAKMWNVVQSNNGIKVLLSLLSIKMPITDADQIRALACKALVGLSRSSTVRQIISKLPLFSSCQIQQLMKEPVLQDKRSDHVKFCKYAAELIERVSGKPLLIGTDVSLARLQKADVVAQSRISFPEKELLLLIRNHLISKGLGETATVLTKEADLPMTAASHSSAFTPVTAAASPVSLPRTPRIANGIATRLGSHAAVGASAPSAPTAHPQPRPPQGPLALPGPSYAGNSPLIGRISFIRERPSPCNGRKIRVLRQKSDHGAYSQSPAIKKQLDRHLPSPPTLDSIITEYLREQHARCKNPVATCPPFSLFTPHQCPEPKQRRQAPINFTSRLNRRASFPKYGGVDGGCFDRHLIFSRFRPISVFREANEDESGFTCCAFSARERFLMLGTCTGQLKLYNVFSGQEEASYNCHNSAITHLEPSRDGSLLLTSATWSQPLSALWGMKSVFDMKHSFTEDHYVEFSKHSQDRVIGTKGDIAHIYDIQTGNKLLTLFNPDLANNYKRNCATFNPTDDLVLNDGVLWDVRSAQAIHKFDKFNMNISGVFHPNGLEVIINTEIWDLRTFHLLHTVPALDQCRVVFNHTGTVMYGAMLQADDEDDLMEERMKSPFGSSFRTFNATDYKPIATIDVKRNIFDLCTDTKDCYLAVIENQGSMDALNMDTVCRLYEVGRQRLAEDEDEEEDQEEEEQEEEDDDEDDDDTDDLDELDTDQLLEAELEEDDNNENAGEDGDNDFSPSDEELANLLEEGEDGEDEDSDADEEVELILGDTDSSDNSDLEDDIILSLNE
WDR5: WD repeat-containing protein 5 (WDR5, Homo sapiens, UniProt P61964)
target	conditions	SYPRO Orange fluorescence
DCAF1	46.4 °C	12900 a.u.
DCAF1	90.01 °C	35100 a.u.
DCAF1	89.81 °C	35300 a.u.
WDR5	88.01 °C	43500 a.u.
DCAF1	89.01 °C	36100 a.u.
WDR5	27.6 °C	14800 a.u.
WDR5	37.6 °C	14400 a.u.
WDR5	83.01 °C	33500 a.u.
WDR5	74.81 °C	10800 a.u.
WDR5	75.81 °C	12600 a.u.
DCAF1	38 °C	9660 a.u.

Sample 7 — action: degrader; method: automated immunoblot; cells: HCC1569
SMILES: Cc1ccc(O)c(C)c1-c1cnc2[nH]c(-c3cnc(N4CCC(CN5CCN(c6cc7c(cc6F)n(C6CCC(=O)NC6=O)c(=O)n7C)CC5)CC4)nc3)cc2c1C#N (centres unmarked)
Target: Membrane-associated tyrosine- and threonine-specific cdc2-inhibitory kinase (PKMYT1, Homo sapiens, UniProt Q99640)
Construct (Q99640 1-499): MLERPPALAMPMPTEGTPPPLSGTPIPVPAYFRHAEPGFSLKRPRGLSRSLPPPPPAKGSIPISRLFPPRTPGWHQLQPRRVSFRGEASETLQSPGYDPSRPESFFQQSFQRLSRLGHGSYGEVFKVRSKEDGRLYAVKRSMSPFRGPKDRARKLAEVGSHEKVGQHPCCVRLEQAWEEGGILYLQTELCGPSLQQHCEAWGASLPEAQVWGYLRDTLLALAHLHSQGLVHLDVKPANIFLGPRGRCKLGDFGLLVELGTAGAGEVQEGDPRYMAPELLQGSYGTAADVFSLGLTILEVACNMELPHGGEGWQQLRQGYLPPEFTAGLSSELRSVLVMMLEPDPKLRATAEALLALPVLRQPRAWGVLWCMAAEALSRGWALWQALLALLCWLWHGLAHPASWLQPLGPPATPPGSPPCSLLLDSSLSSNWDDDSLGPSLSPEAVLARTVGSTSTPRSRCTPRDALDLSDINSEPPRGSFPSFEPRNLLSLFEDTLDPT
conditions	degradation [%]
100.00 nM	90.9
0.10 nM	49.5
1000.00 nM	79
10.00 nM	90.9
1.00 nM	75.3

Sample 8 — cell line: MDA-MB-231; effect on: cell viability; method: CellCounting-Lite; concentration: 2.743 nM; temperature: 37 °C; reading: higher = more viable cells
SMILES	luminescence signal
Cn1cc(-n2cnc3c(NCc4nc5cc(Cl)c(Cl)cc5[nH]4)nc(N4CCNCC4)nc32)cn1	485000 a.u. and 502000 a.u.
CCn1cnc2c(NCc3nc4cc(Cl)c(Cl)cc4[nH]3)nc(N3CCN(C(=O)c4cccnc4)CC3)nc21	399000 a.u. and 395000 a.u. and 362000 a.u.
CCCCOc1nc(NCc2nc3cc(Cl)c(Cl)cc3[nH]2)c2ncn(CC)c2n1	457000 a.u. and 556000 a.u. and 647000 a.u.
CCn1cnc2c(NCc3nc4cc(Cl)c(Cl)cc4[nH]3)nc(N3CCN(C(=O)CNC(C)=O)CC3)nc21	521000 a.u. and 500000 a.u. and 515000 a.u.
CCn1cnc2c(NCc3nc4cc(F)c(F)cc4[nH]3)nc(N3CCn4ncnc4C3)nc21	555000 a.u. and 480000 a.u. and 488000 a.u.
CC(=O)N1CCN(c2nc(NCc3nc4cc(Cl)c(Cl)cc4[nH]3)c3ncn(-c4cnn(C)c4)c3n2)CC1	513000 a.u. and 545000 a.u. and 538000 a.u.
CCn1cnc2c(NCc3nc4cc(Cl)c(Cl)cc4[nH]3)nc(N3CCC(NC(C)=O)CC3)nc21	452000 a.u. and 485000 a.u. and 514000 a.u.
CC(=O)N1CCN(c2nc(NCc3nc4cc(Cl)c(Cl)cc4[nH]3)c3ncn(C(C)C)c3n2)CC1	511000 a.u. and 490000 a.u. and 507000 a.u.
CCn1cnc2c(NCc3nc4cc(Cl)c(Cl)cc4[nH]3)nc(N3CCN(c4ccccn4)CC3)nc21	583000 a.u. and 626000 a.u. and 581000 a.u.

For quick reference, copied from above (sample 1):
target	assay	scale	remaining binding
Ribosomal protein S6 kinase alpha-4, C-terminal kinase domain (RPS6KA4, Homo sapiens, UniProt O75676)	kinase binding, KINOMEscan	reference: DMSO control	100%
CDPK1 (Plasmodium falciparum, UniProt P62344)	binding, competition with immobilised ligand	–	96%
EPHA1 (Homo sapiens, UniProt P21709)	binding, competition with immobilised ligand	–	95%
TNNI3K (Homo sapiens, UniProt Q59H18)	binding, competition with immobilised ligand	–	98%
ROCK2 (Homo sapiens, UniProt O75116)	binding, competition with immobilised ligand	–	77%
FLT3 (Homo sapiens, UniProt P36888, K663Q)	kinase binding, KINOMEscan	reference: DMSO control	80%
ACVR1B (Homo sapiens, UniProt P36896)	kinase binding, KINOMEscan	reference: DMSO control	100%
Tyrosine-protein kinase ABL1, phosphorylated (ABL1, Homo sapiens, UniProt P00519, Q252H)	binding, competition with immobilised ligand	–	66%
MUSK (Homo sapiens, UniProt O15146)	binding, competition with immobilised ligand	–	100%
STK35 (Homo sapiens, UniProt Q8TDR2)	kinase binding, KINOMEscan	reference: DMSO control	98%
FGFR3 (Homo sapiens, UniProt P22607)	binding, competition with immobilised ligand	–	100%
MAP3K2 (Homo sapiens, UniProt Q9Y2U5)	kinase binding, KINOMEscan	reference: DMSO control	100%
